{"data": "Assay results collected from several papers", "note": "Numbered parts are unrelated; each lists some results of a single study.", "UniProt Q96D53, sequence (whole entry, looked up)": "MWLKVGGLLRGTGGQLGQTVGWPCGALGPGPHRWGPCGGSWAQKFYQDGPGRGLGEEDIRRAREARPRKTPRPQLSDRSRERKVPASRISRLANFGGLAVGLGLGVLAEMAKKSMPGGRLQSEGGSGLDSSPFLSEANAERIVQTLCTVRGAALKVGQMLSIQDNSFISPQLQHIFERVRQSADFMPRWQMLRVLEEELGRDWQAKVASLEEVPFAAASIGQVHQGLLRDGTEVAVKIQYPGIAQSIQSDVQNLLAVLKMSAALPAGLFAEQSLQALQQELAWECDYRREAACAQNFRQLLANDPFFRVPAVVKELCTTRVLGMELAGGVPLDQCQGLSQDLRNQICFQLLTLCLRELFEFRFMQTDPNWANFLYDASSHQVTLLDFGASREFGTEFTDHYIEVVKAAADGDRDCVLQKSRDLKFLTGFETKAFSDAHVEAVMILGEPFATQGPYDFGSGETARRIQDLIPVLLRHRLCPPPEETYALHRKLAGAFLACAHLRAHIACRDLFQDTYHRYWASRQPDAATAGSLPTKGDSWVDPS", "UniProt Q13164, sequence (whole entry, looked up)": "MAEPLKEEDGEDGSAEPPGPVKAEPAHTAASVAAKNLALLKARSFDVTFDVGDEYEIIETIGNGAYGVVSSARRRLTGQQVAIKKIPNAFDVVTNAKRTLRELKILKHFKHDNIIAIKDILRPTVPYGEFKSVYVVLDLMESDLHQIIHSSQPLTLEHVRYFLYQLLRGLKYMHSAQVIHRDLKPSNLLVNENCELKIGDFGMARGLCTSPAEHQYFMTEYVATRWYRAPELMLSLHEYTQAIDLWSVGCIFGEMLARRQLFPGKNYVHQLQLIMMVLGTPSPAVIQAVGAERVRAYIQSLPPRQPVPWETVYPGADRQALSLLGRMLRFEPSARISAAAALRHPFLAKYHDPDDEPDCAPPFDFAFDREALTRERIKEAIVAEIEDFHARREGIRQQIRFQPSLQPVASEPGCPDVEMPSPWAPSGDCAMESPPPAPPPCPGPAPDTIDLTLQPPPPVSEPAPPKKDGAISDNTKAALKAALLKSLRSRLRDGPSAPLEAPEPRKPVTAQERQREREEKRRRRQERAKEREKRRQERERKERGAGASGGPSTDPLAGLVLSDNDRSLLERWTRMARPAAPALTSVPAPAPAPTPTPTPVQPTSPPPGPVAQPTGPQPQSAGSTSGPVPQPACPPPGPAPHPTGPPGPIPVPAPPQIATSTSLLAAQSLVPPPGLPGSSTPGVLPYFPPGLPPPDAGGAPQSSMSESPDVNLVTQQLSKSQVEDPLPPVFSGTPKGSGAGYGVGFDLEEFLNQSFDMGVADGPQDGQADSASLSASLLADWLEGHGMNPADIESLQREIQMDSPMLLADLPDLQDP"}
{"data": "Study 1", "Structure (SMILES)": "CC1=C(C#N)C(c2ccc3c(c2)c(NC(=O)c2ccccc2C)nn3C)C(C#N)=C(C)N1", "read-out": "cell-free assay", "method": "competition with immobilised ligand", "tested at": "1 µM"}
{"target": "Receptor tyrosine-protein kinase erbB-2 (ERBB2, Homo sapiens, UniProt P04626)", "remaining binding": "86%"}
{"target": "Epidermal growth factor receptor (EGFR, Homo sapiens, UniProt P00533)", "remaining binding": "84%"}
{"target": "Phosphorylase b kinase gamma catalytic chain, liver/testis isoform (PHKG2, Homo sapiens, UniProt P15735)", "remaining binding": "89%"}
{"target": "Mitogen-activated protein kinase 14 (MAPK14, Homo sapiens, UniProt Q16539)", "remaining binding": "88%"}
{"target": "Cyclin-dependent kinase 4, with cyclin D1 (CDK4, Homo sapiens, UniProt P11802)", "remaining binding": "100%"}
{"target": "Tyrosine-protein kinase ITK/TSK (ITK, Homo sapiens, UniProt Q08881)", "remaining binding": "97%"}
{"target": "Serine/threonine-protein kinase Nek9 (NEK9, Homo sapiens, UniProt Q8TD19)", "remaining binding": "100%"}
{"target": "Cyclin-dependent kinase 3 (CDK3, Homo sapiens, UniProt Q00526)", "remaining binding": "99%"}
{"target": "Mitogen-activated protein kinase 7 (MAPK7, Homo sapiens, UniProt Q13164)", "remaining binding": "100%"}
{"target": "Misshapen-like kinase 1 (MINK1, Homo sapiens, UniProt Q8N4C8)", "remaining binding": "96%"}
{"target": "Dual specificity mitogen-activated protein kinase kinase 3 (MAP2K3, Homo sapiens, UniProt P46734)", "remaining binding": "91%"}
{"target": "Proto-oncogene tyrosine-protein kinase receptor Ret (RET, Homo sapiens, UniProt P07949)", "remaining binding": "97%"}
{"target": "Tyrosine-protein kinase receptor UFO (AXL, Homo sapiens, UniProt P30530)", "remaining binding": "100%"}
{"target": "Serine/threonine-protein kinase PAK 3 (PAK3, Homo sapiens, UniProt O75914)", "remaining binding": "67%"}
{"target": "Atypical kinase COQ8B, mitochondrial (COQ8B, Homo sapiens, UniProt Q96D53)", "remaining binding": "100%"}
{"data": "Study 2", "Compound": "COc1ccc(-c2c(Nc3ccccn3)[nH]c3c(C4=CCCCC4)c(-c4ccccc4)nn3c2=O)cc1", "matrix": "plasma"}
{"assay": "refers to: methionine", "test system": "human patients", "setting": "150 mg once daily, 4 h", "geometric mean concentration": "119000 ng/mL"}
{"assay": "refers to: methionine", "test system": "human patients", "setting": "100 mg once daily, 0 h", "geometric mean concentration": "81400 ng/mL"}
{"assay": "LC-MS/MS, refers to: S-adenosylmethionine", "setting": "oral, 50 mg once daily, 4 h, cycle 1 day 1", "geometric mean concentration": "21 ng/mL"}
{"assay": "LC-MS/MS, refers to: S-adenosylmethionine", "setting": "oral, 200 mg twice daily, 8 h, cycle 1 day 1", "geometric mean concentration": "11.5 ng/mL"}
{"assay": "refers to: S-adenosylmethionine", "test system": "human patients", "setting": "150 mg once daily, 0 h", "geometric mean concentration": "15.9 ng/mL"}
{"assay": "refers to: methionine", "test system": "human patients", "setting": "200 mg once daily, 8 h", "geometric mean concentration": "107000 ng/mL"}
{"assay": "refers to: S-adenosylmethionine", "test system": "human patients", "setting": "100 mg once daily, 6 h", "geometric mean concentration": "16.5 ng/mL"}
{"assay": "LC-MS/MS, refers to: S-adenosylmethionine", "setting": "oral, 200 mg twice daily, 2 h, cycle 1 day 1", "geometric mean concentration": "10.1 ng/mL"}
{"data": "Study 3", "cell line": "A-375", "tested at": "100 µM", "time": "36 h"}
{"Structure (SMILES)": "CC1=C(CC(=O)O)c2cc(F)ccc2/C1=C\\c1ccc([S+](C)[O-])cc1 (stereo not drawn)", "viability [%]": 92.3}
{"Structure (SMILES)": "O=C(O)c1ccccc1O", "viability [%]": 111}
{"Structure (SMILES)": "CN(Cc1ccc(C(C)(C)C)cc1)Cc1cccc2ccccc12", "viability [%]": 24.4}
{"Structure (SMILES)": "OCCN1C[C@H](O)[C@@H](O)[C@H](O)[C@H]1CO", "viability [%]": 124}
{"Structure (SMILES)": "Cc1nccnc1N1CCCCC1", "viability [%]": 113}
{"Structure (SMILES)": "Cc1onc(-c2ccccc2)c1C(=O)N[C@@H]1C(=O)N2[C@@H]1SC(C)(C)[C@@H]2C(=O)O", "viability [%]": 104}
{"Structure (SMILES)": "O=C(O)c1cc(/N=N/c2ccc(S(=O)(=O)Nc3ccccn3)cc2)ccc1O", "viability [%]": 97.9}
{"data": "Study 4", "target": "CRBN/Zinc finger protein Helios (Homo sapiens, UniProt Q96SW2+Q9UKS7)", "mode": "degrader", "method": "HiBiT", "cells": "HEK293", "tested at": "10000 nM", "UniProt Q96SW2, sequence (whole entry, looked up)": "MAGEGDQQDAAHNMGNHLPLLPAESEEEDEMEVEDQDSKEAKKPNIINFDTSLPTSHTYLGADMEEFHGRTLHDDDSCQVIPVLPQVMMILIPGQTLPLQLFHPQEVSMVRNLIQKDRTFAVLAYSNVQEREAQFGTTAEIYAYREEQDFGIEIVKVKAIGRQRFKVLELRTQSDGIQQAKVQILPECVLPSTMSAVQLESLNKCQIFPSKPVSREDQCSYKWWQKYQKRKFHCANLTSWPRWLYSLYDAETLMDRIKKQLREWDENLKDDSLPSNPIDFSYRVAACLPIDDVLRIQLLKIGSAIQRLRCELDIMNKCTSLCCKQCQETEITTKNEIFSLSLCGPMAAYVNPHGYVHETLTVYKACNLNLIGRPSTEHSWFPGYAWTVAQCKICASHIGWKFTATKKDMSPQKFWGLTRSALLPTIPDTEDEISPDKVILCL", "UniProt Q9UKS7, sequence (whole entry, looked up)": "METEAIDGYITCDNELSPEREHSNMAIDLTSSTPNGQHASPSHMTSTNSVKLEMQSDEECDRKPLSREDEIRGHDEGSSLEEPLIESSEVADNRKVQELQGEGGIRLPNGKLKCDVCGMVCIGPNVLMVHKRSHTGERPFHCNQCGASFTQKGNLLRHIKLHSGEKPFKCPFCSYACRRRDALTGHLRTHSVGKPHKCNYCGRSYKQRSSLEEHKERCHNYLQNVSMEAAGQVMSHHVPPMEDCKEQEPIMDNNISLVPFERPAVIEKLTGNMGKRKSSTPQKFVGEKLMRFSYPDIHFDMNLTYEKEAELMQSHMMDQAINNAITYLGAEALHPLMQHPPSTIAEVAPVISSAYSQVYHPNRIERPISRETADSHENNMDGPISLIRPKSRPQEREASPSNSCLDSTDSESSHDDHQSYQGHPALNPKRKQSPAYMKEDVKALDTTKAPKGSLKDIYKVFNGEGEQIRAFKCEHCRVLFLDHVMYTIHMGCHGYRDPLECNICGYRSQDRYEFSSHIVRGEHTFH"}
{"SMILES": "O=C1CCC(N2Cc3c(ccc4c3OCCC43CCN(Cc4ccccc4)CC3)C2=O)C(=O)N1 (stereo not drawn)", "protein remaining": "56.1%"}
{"SMILES": "O=C1CCC(N2Cc3c(ccc4c3OCC43CCC(Cc4ccccc4)CC3)C2=O)C(=O)N1 (stereo not drawn)", "protein remaining": "85%"}
{"SMILES": "O=C1CCC(N2Cc3c(ccc4c3OCC43CCC(Oc4ccccc4)CC3)C2=O)C(=O)N1 (stereo not drawn)", "protein remaining": "62.2%"}
{"note": "A few entries again (study 3):"}
{"Structure (SMILES)": "OCCN1C[C@H](O)[C@@H](O)[C@H](O)[C@H]1CO", "viability [%]": 124}
{"Structure (SMILES)": "O=C(O)c1ccccc1O", "viability [%]": 111}
{"Structure (SMILES)": "O=C(O)c1cc(/N=N/c2ccc(S(=O)(=O)Nc3ccccn3)cc2)ccc1O", "viability [%]": 97.9}
